Results of several laboratories.
Compare with care: the assays were run in different laboratories. ± gives the spread as reported.

| SMILES | test | system | conditions | quantity | value |
| --- | --- | --- | --- | --- | --- |
| Oc1ccc(CSCc2ccc(O)cc2)cc1 |  | ICR mice male | oral, 3000 mg/kg, day 1 before dosing, acute toxicity | body weight | 30.4 ± 0.69 g |
| Cn1cc(-c2nc(N[C@@H]3CCCC[C@@H]3N)c(F)c3c2C(=O)NC3)cn1 | item: Esophageal haemorrhage | patients with relapsed or refractory AML | oral, dose not given, all doses | hemorrhagic adverse events | 1 number of patients |
| COc1cc2c(Oc3ccc4[nH]c(C)cc4c3F)ccnc2cc1OCC1(N)CC1 |  | paediatric refractory sarcoma patients | 10 mg | TBIL elevation incidence | 0% |
| CC(C)[C@@H](CN1CC[C@@](C)(c2cccc(O)c2)[C@@H](C)C1)NC(=O)[C@@]1(C)Cc2ccc(O)cc2CN1 |  | rat, brain | intraperitoneal, 5 mg/kg | AUCtotal | 1380 ng·h/g |
| CO[C@H]1C[C@@H]2CC[C@@H](C)[C@@](O)(O2)C(=O)C(=O)N2CCCC[C@H]2C(=O)O[C@H]([C@H](C)C[C@@H]2CC[C@@H](OC(=O)NCCOCCOCCOCCOCCOCCOCCOCCOCCC(=O)N3CCc4cc(Cn5nc(-c6ccc7oc(N)nc7c6)c6c(N)ncnc65)ccc4C3)[C@H](OC)C2)C[C@@H](O)[C@H](C)/C=C(\C)[C@@H](O)[C@@H](OC)C(=O)[C@H](C)C[C@H](C)/C=C/C=C/C=C/1C | phase 1 dose escalation | advanced solid tumour patients | intravenous, 6 mg weekly, grade ≥3 | deaths due to TRAEs | 0% |
| CC(=O)c1c(C)c2cnc(Nc3ccc(C4CCN(CCS(C)(=O)=O)CC4)cn3)nc2n(C2CCCC2)c1=O |  | HR+/HER2- advanced breast cancer patients | oral, dose not given, grade 3 to 4 | ALT increased | 1% |
| COc1ccnc(C(=O)N[C@H]2COC(=O)[C@H](Cc3ccccc3)[C@@H](OC(=O)C(C)C)[C@H](C)OC2=O)c1OCOC(=O)C(C)C |  | mouse, in vivo |  | micronucleus test | negative |
| CCC[C@@](N)(CO)CCc1ccc(OCCCCCC(C)C)cc1 |  | male hound dog, plasma | oral, 20 mg/kg, capsule, fasted, geometric mean | AUC(0-t) | 15.5 µM·h |
| CCCSc1ccc2nc(NC(=O)OC)[nH]c2c1 |  | mouse, blood | oral, 50 mg/kg | white blood cell count | 7.16 10⁹/L |
| CC1(C)C(/C=C(\Cl)C(F)(F)F)C1C(=O)OC(C#N)c1cccc(Oc2ccccc2)c1 (stereo not drawn) | item: CYP2B6 | human, age 1 year |  | enzyme contribution to clearance | 0.32% |
| COc1ncccc1-c1cnn2ccc(N3CCN(C(=O)OC(C)C)CC3)nc12 |  | rat, CCI mechanical hyperalgesia model, plasma | oral, 30 mg/kg, 210 min | drug concentration | 3700 nM |
| CN1CCN(S(=O)(=O)c2cc([N+](=O)[O-])ccc2N(CCOS(C)(=O)=O)CCOS(C)(=O)=O)CC1 |  | NSG mice female, plasma | intraperitoneal, 25 mg/kg, 0.5 h | concentration | 1940 nM |
